Experimental data of several laboratories.
Protocols differ between the studies behind these lines.

Under “patients with adverse event”, CN1CC[C@@H](c2c(O)cc(O)c3c(=O)cc(-c4ccc(C(F)(F)F)cc4Cl)oc23)[C@@H]1CO is recorded as 50% (item: Epistaxis; relapsed AML; oral, 150 mg, grade 3-4, intermittent dosing).
C=CCNc1c(O)cc2c(O)c1C[C@@H](C)C[C@H](OC)[C@H](O)[C@@H](C)/C=C(\C)[C@H](OC(N)=O)[C@@H](OC)/C=C\C=C(/C)C(=O)N2: “patients with related AEs” 59% (item: fatigue; unresectable or metastatic GIST/STS; intravenous, dose not given, all patients).
Under “patients with adverse event”, CCN(CCO)CCCC(C)Nc1ccnc2cc(Cl)ccc12 (centres unmarked) is recorded as 14% (item: Headache grade 1; newly diagnosed glioblastoma patients; oral, 400 mg/dose, with radiotherapy and temozolomide).
C[C@@H]1OC(=O)NN=C1c1ccc(-c2ccc(F)cc2)c(C(F)(F)F)c1: “patients with back pain” 0% (patients, phase I trial; oral, 5 mg once daily, any grade TEAE).
For COc1c(OCCCN2CCOCC2)ccc2c1N=C(NC(=O)c1cnc(N)nc1)N1CCN=C21, “patients with adverse event” read 78% (item: decreased neutrophil count; patients with advanced malignancies; intravenous, dose not given, any grade, all cohorts, together with: gemcitabine).
CC(=O)c1c(C)c2cnc(Nc3ccc(C4CCN(CCS(C)(=O)=O)CC4)cn3)nc2n(C2CCCC2)c1=O — result for “patients with any TEAE”: 100% (HR+/HER2- advanced breast cancer patients; oral, 200 mg).
N[C@@H]1c2ccccc2OC12CCN(c1cnc3c(N4CCCc5ncccc54)n[nH]c3n1)CC2 — result for “patients with fatal TEAE”: 14.3% (advanced solid tumour patients; oral, 100 mg once daily).
For Nc1nc2cc(-c3ccc4ncc(C(=O)N5CCOCC5)n4c3)ccc2o1, “patients with adverse event” read 3% (item: Diarrhea; advanced solid tumour patients; dose not given).
CO[C@H]1C[C@@H]2CC[C@@H](C)[C@@](O)(O2)C(=O)C(=O)N2CCCC[C@H]2C(=O)O[C@H]([C@H](C)C[C@@H]2CC[C@@H](OC(=O)NCCOCCOCCOCCOCCOCCOCCOCCOCCC(=O)N3CCc4cc(Cn5nc(-c6ccc7oc(N)nc7c6)c6c(N)ncnc65)ccc4C3)[C@H](OC)C2)C[C@@H](O)[C@H](C)/C=C(\C)[C@@H](O)[C@@H](OC)C(=O)[C@H](C)C[C@H](C)/C=C/C=C/C=C/1C: “patients with AE” 11% (item: grade ≥3 treatment-related mucositis; patients with advanced solid tumours; intravenous, dose not given, all patients, weekly).
Under “patients with non-serious AE”, Cc1cc(OCCOCCC(F)(F)P(=O)(O)O)ccc1CCc1cnc2c(N)nc3cc(CCC(=O)O)ccc3c2c1 is recorded as 17.8% (item: asthenia; adults with advanced solid tumours; dose not given, all groups pooled, all grades).
O=C1Nc2cc3[nH]nc(-c4ccncc4)c3cc2CN1Cc1ccccc1: “patients with dyspepsia” 0% (CTCAE v4.03; advanced solid tumour patients; intravenous, 4.8 mg/kg).
